Assay results gathered from unrelated publications.
Lines come from different studies, so protocols differ. Several values in a cell are separate wells, animals, samples, runs or records.
Target: Tyrosine-protein kinase CSK (CSK, Homo sapiens, UniProt P41240)

| Compound | assay | test system | conditions | scale | endpoint | value |
| --- | --- | --- | --- | --- | --- | --- |
| Cc1ccc(-c2c(/C=C(\C#N)C(=O)NC(C)C)n(CCCO)c3ncnc(N)c23)cc1 | cell-free assay, competition with immobilised ligand | – | 1 µM | – | remaining binding | 100% |
| Cc1cnc2nc1Nc1cccc(c1)COC/C=C/COCc1cc(ccc1OCCN1CCOCC1)N2 | – | – | concentration not given | – | percent of control | 78% |
| C=CC(=O)Nc1cccc(-c2cnc3[nH]cc(C(=O)NC(C)(C)C)c3n2)c1 | enzyme activity, inhibitor | – | 0.1 µM | – | inhibition | 4% |
| O=C(Nc1ccc(Oc2ncnc3[nH]cc(-c4ccccc4)c23)c(F)c1)c1c2n(n(-c3cc(F)ccc3F)c1=O)CCCC2 | enzyme activity, inhibitor | – | 0.5 µM | – | inhibition | -14% |
| NC(=O)[C@@H](O)C[C@H]1CCc2sc3ncnc(O[C@H]4CC[C@H](N5CCOCC5)CC4)c3c21 | enzyme activity, inhibitor | – | 10 µM | – | inhibition | 34% |
| COc1c(OCCCN2CCOCC2)ccc2c1N=C(NC(=O)c1cnc(N)nc1)N1CCN=C21 | kinase activity, inhibitor | – | 1 µM | baseline: untreated control | remaining activity | 104% |
| CC(C)=CC1OC(C)(C)C2C=C3C(=O)C(Cl)=CC(O)C3C3C(O)C4OC4C(=O)C132 (centres unmarked) | cell-free assay, competition with immobilised ligand | – | 10 µM | – | remaining binding | 91% |
| Cc1cccc(O[C@H]2CCC[C@@H](C(C)CNCc3ccncc3)C2)c1 (relative stereo) | kinase activity, kinome panel screening | – | 1 µM | – | inhibition | 4% |
| CNC(=O)C1CCN(c2cc(C)c(F)cc2NC(=O)c2ccc(-c3cc(O)ccc3C)c(C)c2)CC1 | binding, competition with immobilised ligand | – | 1 µM | – | remaining binding | 39% |
| CCN1CCN(Cc2ccc(C(=O)Nc3ccc(C)c(NCc4cnc5[nH]ccc5c4OC)c3)cc2C(F)(F)F)CC1 | binding, competition with immobilised ligand | – | 1 µM | – | remaining binding | 1% |
| Cc1ccc(C)c(-c2ccc3nc(NC(=O)C4CCCCC4)nn3c2)c1 | enzyme activity, Dundee kinase panel | – | 10 µM | – | remaining activity | 68% |
| C=CC(=O)N1CCc2ccc(-n3c(=O)ccc4cnc5ccc(-c6cnn(C)c6)cc5c43)cc21 | KINOMEscan | – | 1 µM | baseline: DMSO control | remaining binding | 100% |
| Cc1cccc(-c2ccc3nc(NC(=O)C4CCCCC4)nn3c2)c1 | enzyme activity, Dundee kinase panel | – | 10 µM | – | remaining activity | 94% |
| COc1cc(Nc2nc(C)cc(-c3cnn4nc(OC)ccc34)n2)cc(C(F)(F)F)c1 | inhibitor | – | 1 µM | baseline: control | remaining activity | 59% |
| O=C(Cc1ccc(OCc2ccccc2)cc1)NC1(C(=O)O)CCN(C(=O)c2ccc(-c3cccc(Cl)c3)cc2)CC1 | enzyme activity, inhibitor | – | 10 µM | – | activity vs control | 135% |
| CNC1C[S+]2CC[S+]3CC[S+](C1)[Ru-4]321([N]=C=S)[n]2c3ccc(OC)cc3c3c4c(c5cc(F)c[n+]1c5c32)C(=O)NC4=O (centres unmarked) | KinomeScan | – | 0.1 µM | baseline: untreated | remaining binding | 100% |
| CCn1cc(C(=O)O)c(=O)c2c(N)c(F)c(NC3CCCCC3)cc21 | kinase activity | – | 0.1 µM, added: ATP at Km | – | inhibition | 3.3% |
| C=CC(=O)N1CCCC(n2c(=O)c3ncccc3n(Cc3ccc(Oc4ccccc4)cc3)c2=O)C1 (centres unmarked) | cell-free assay, competition with immobilised ligand | – | 1 µM | – | remaining binding | 100% |
| COc1c(Cl)cccc1Nc1c(-c2ccncc2C#C[C@@]2(C)CCCN2C(=O)/C=C/CN(C)C)[nH]c2c1C(=O)NCC2 | cell-free assay, competition with immobilised ligand | – | 3 µM | – | remaining binding | 85% |
| N[C@H]1CC[C@H](Nc2nccc(-c3cccnc3Oc3ccc(NC(=O)NC4CC4)c4ccccc34)n2)CC1 | kinobead competition pulldown | HEK293/HCT116 lysate mixture | 10 µM, 1 h, 4 °C | lower = stronger competition | log2 LFQ intensity | 27.4 and 27.2 |

For quick reference, copied from above:
| Compound | assay | test system | conditions | scale | endpoint | value |
| --- | --- | --- | --- | --- | --- | --- |
| COc1cc(Nc2nc(C)cc(-c3cnn4nc(OC)ccc34)n2)cc(C(F)(F)F)c1 | inhibitor | – | 1 µM | baseline: control | remaining activity | 59% |
| N[C@H]1CC[C@H](Nc2nccc(-c3cccnc3Oc3ccc(NC(=O)NC4CC4)c4ccccc34)n2)CC1 | kinobead competition pulldown | HEK293/HCT116 lysate mixture | 10 µM, 1 h, 4 °C | lower = stronger competition | log2 LFQ intensity | 27.4 and 27.2 |
